Measured values collected from several papers.
Parts stem from different laboratories: compare values within a part only. Changes are numbered by the printed parent chain.

Study 1 — target: CCNA2, cyclin fold, Cln2 fusion (human); technique: yeast growth competition, sequencing; medium: yeast; setting: strong parent motif; baseline: not given; reading: higher = stronger binding
Starting sequence: E2F1 docking peptide (human); PPVKRRLDLETDH; partner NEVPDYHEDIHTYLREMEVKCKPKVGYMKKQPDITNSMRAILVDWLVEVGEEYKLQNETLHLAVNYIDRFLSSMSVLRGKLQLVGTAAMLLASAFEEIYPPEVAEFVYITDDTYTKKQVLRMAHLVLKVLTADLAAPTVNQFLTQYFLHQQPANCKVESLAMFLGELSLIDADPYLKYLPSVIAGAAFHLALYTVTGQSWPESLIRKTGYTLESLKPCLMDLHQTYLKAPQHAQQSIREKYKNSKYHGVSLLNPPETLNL
| Change | normalised enrichment score |
| --- | --- |
| PPIKRRLDLETDH [V3I] | 1.07 |
| KPVKRRLDLETDH [P1K] | 6.14 |
| PPVKRRLDLETMH [D12M] | 4.98 |
| PIVKRRLDLETDH [P2I] | 2.3 |
| PPVKRRLDLETGH [D12G] | 4.82 |
| PPVKRRLDLETDN [H13N] | 4.34 |
| PPVKRRLFLETDH [D8F] | 5.87 |
| PPVKRRLQLETDH [D8Q] | 4.79 |

Study 2 — technique: protein binding microarray; form: double-stranded DNA, one strand shown; medium: in vitro; tested at: not given; baseline: not given; reading: higher = stronger binding
Target: Histone acetyltransferase KAT6A, winged helix 2, GST fusion (KAT6A, Homo sapiens, UniProt Q92794, residues 85-181)
Setting: 8-mer, flanks averaged, mean of 2 arrays, mostly near background
Construct (chain): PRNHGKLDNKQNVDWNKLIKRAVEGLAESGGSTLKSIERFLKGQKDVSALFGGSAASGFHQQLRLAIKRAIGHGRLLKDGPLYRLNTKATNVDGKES
| Strand | E-score |
| --- | --- |
| TCGAAACA | 0.2 |
| CCCACGGA | 0.184 |
| GCTTCGCA | 0.0494 |
| CAGCCACA | 0.15 |
| GCGCTCCA | 0.16 |
| CGACCGCA | 0.105 |
| ATGTCTCC | -0.0269 |
| GGAGCCCA | -0.158 |
| GTGGTATA | -0.139 |
| ATCGTGCC | 0.108 |
| CGGGCTCA | 0.017 |
| AACGTTGG | -0.143 |
| CCGCCTTA | 0.132 |
| GTTAATAA | 0.14 |
| AAGTAATT | -0.0158 |
| TCTGTGAA | 0.0471 |

Study 3 — technique: RNA Bind-n-Seq; form: RNA; medium: in vitro; tested at: 365 nM; baseline: no-protein control; reading: higher = stronger binding
Target: RNA binding protein fox-1 homolog 2, RRM domain, GST-SBP tag (RBFOX2, Homo sapiens, UniProt O43251-10, residues 100-194)
Setting: natural RNA segment, single round, ends assumed
All sequences stand within: GGGAGUUCUACAGUCCGACGAUC … UGGAAUUCUCGGGUGCCAA
Residues (chain): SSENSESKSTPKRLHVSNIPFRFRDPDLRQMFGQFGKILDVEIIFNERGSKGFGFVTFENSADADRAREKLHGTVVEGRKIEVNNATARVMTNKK
| Strand | RBNS enrichment (R) |
| --- | --- |
| CAAACACAAACACCUACUUGGGCUGCACACAGUCACACAAUCAAUCUAUAAUUCUUGGGGUUAGCUCAGUCCAUUUACUUGUGUAUUUCUGAGUGGUUGGUGAGAUUACU | 0.348 |
| GGCCUUUUCAGCAUUGGCCCACUAGCACCAUGCAUUUAUCUGAAUUCACGGGGCCCUCUGGGCACAUUCAUCAUCCCUCAUACACUAACUACUGUUUCUUCAUGUAAUGA | 0.235 |
| UGUACUUUCCAAACAAAUGAUACAACCCUGACCAAGCUAAAAGACGCUUGUUAAAGGCUAUUUUCUAUAUUUAUUGUUGGGAAAAGUCACUUUAAAGACUUGUGCUAUUU | 0.447 |
| UUUUUGGUGUUGAAGGGAAUCAAACUACAUUUGCUGCUUGUGUGCGUGUGCAUUUGUGAACACGUACAGCAUAUCUAUACAAAAUUCUGCUAUAGUGUGAAAAUCAGGGC | 2.86 |
| CAGCUUCGGGGCAAGUGAGACAAUCACAGCUCCUCGCUGCGUCUCCAUCAACACUGCGCCGGGUACCAUGGACGGCCCCGUCAGCCACACCUGUCAGCCCAAGCAGAGUG | 0.327 |
| UGCUUCUUUAUGCUUUUUCAUUUAAAACAUGUUUUAAAGCAUAUUCUCACUGAGUCUAUUGUUUGUCUUCACAUUGCUGAUGGAACGAAAUGUUGACACUCAGUGAUGUG | 0.331 |
| AACUCACACAACUAGGAAGUGGCUGAGUCAGGACUUGAACCCAGGUCUCCCUGGAUCAGAACAGGAGCUCUUAACUACAGUGGCUGAAUAGCUUCUCCAAAGGCUCCCUG | 0.299 |
| AGCACUGUAUACUAUUGCAUUCUUAGGCUACUGUGAGGUCUAUGUUUCUUGUACCAGAAAUUGUCCUUUUGACUUCUAGAUCCUUCUUCCCUAAUGUGUUUUGUAUGUGG | 1.57 |
| GAGCUCAUGUCCAUGAGCAUCGCACCACGAAUGAUGAGUGUUAGCUGCCAGAAGUUCAUGGUCAGAUACUGUGACUAUCACUAUCUUGUUUCUGUGAUUGUCAUUAAAAA | 0.374 |
| CUUUACCCAGUGUGUUCCUGCAUUGUUUAGUGUGGAACUGUGGGCAGGUGCCGAGUGUCAGAUAGCAUCGGUCCAGAGCUCGUCAGAGGCCCCUGACAGUGGAAACAGAA | 1.97 |
| CACCGGAAUCUUUCCCCCUUCGUGUGUUUAGUGGAAACAUCCCCCCUCCUAAACAAACUAACAAAACCAAUAUGGAGGUGGGGGGAGAUGAAGUCCUGUGGAACUGUCUA | 0.3 |
| ACGUACAAAACUCUGUAUAAGUUGAAGGAAAAUGUUCAUGUUCAUAUGUACUUGUUUGCUAUGACUACAUUUUGAGGUUUUGUAAAACUGUUAUUUUUUUUUUUUUCACA | 1.02 |

Single results of other studies
| Molecule | target | assay | system | setting | scale | measurement | value |
| --- | --- | --- | --- | --- | --- | --- | --- |
| PhoQ, residues 284 288 289 292 302 303 AGHLVA | PhoP, residues 12 14 15 18 19 VQALL (Escherichia coli, UniProt P23836) | Sort-seq, refers to: YFP reporter | E. coli | PhoQ-PhoP variant library, with: 10 µM Mg2+ | baseline: high Mg2+ state, higher = stronger signaling | fold induction | 8.36 |

A few entries again (study 2):
| Strand | E-score |
| --- | --- |
| GTGGTATA | -0.139 |
| ATCGTGCC | 0.108 |
